Measurements collected from several papers.
Numbered parts are unrelated; each lists some results of a single study. Substitutions count along the parent as printed.

Set 1
Target: ABI1, truncated, D143A, DHFR fusion (Arabidopsis thaliana)
Method: DHFR PCA, deep sequencing
Sample: yeast
Notes: methotrexate growth selection, single substitutions
Added: (+)-ABA 0 µM
Baseline: wild-type fitted maximum
Reading: higher = stronger binding
Measurement: relative binding score
Starting sequence: PYL1, truncated, DHFR fusion (Arabidopsis thaliana); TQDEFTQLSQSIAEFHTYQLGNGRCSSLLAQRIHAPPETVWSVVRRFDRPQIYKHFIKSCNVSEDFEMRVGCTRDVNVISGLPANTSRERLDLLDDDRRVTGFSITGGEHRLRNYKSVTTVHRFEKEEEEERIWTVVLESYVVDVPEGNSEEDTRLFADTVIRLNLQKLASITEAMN; partner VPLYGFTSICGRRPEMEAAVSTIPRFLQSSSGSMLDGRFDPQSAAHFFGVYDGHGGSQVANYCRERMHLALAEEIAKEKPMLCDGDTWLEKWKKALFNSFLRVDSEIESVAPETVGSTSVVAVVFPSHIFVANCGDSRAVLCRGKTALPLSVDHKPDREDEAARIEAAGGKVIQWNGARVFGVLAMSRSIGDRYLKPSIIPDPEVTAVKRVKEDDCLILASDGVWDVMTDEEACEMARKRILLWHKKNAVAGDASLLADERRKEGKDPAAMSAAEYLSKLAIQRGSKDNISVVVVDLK
A84K: 4.02%
V145G: -4.18%
T6V: 42.1%
R32N: 4.24%
Q167A: 26.3%
E89Y: 8.56%
A175Y: -5.71%
F56E: 1.01%
A158C: 66.6%
G148Q: 0.966%
R163T: 20.1%
K168F: -5.74%
C25R: -1.16%
A170V: -1.46%

Set 2
Target: CCNF, cyclin fold, Cln2 fusion (human)
Method: yeast growth competition, sequencing
Sample: yeast
Notes: strong parent motif
Baseline: not given
Reading: higher = stronger binding
Measurement: normalised enrichment score
Starting sequence: GMNC docking peptide (human); KNAKRNLSSEFAN
R5K: 0.221
N6W: 0.757
N6L: 0.153
A12H: 0.307
L7V: 0.149
S8T: 0.486
K4F: 0.403
S8C: 0.668
K4W: 0.493
K4A: 0.597
K4T: 0.495
S9N: 0.714
N6C: 0.539

Set 3
Target: RING finger protein unkempt homolog, zinc fingers 1-6, GST-SBP tag (UNK, Homo sapiens, UniProt Q9C0B0, residues 30-357)
Method: RNA Bind-n-Seq
Molecule type: RNA
Sample: in vitro
Tested at: not given
Notes: RNA with constant flanks, human and mouse sites, ends assumed
Baseline: input RNA pool
Reading: higher = stronger binding
Measurement: bound/input enrichment
Shared flanks, not repeated: GGGAGUUCUACAGUCCGACGAUC … CAACAGAGGAUUGAGCAUCA
Target sequence (chain): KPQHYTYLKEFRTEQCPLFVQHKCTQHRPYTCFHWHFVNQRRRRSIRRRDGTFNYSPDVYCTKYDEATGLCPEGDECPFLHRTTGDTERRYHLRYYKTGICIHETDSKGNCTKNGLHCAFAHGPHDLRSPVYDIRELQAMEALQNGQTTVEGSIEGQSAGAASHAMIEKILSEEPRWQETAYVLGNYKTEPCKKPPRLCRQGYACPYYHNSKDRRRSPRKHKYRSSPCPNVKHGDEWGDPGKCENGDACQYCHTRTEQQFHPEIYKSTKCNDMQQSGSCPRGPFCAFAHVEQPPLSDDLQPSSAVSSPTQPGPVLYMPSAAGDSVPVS
AUCAUACCAUCAAAGGAUAAGAAUAUUUUGCCAAAGGUUUUCCAUUAUUAUGGCCCUGCUUUAGAAUUUGUGCAGAUGAUAAAAUUAUCAGAUCUACCCUCCUGCUAUAUGUCGGAUAUU: 0.991 ratio
AGCAUGAAUAUGAAGAGCAGGUUUGAUAUAAAAUCAAUGGCAGGGAAUAUCAUUCCUGCUAUAGCUACUACUAAUGCAGUGAUCGCCGGCUUGAUAGUGUUGGAAGGAUUAAAGAUUUUA: 0.269 ratio
GUGAUGUCUUCCAGACUCGGUGCAGUCACCGCCGUGAGUUUCUUGGUGUGACCAUUAUACUUUAGAAAUAGAACUGUCGAGCUGAGAACACGCGGUCCUUUGCUUUUGUUUUGUACUCAG: 0.216 ratio
GAUAUUUUGGGUGUUAAAAAGGAAAUGAUCCGACUAGAUGAAGUCCCCAAUCUGAGUUCCUUAGUAUCCAAUUUCGAUCAGCAGCAGCUCGCUAAUUUCUGCCGGAUUCUGGCUGUCACC: 0.395 ratio
UGUUGAGCCUCACAGCCCUUCCCCUUCGAGCAAAUUCAGCACAAAAGGCCUCUGUAAGAAAAAACUGAGUGGGGAGGGAGACACAGACCCUGGAGCCUUAUCCAAUGAUGGCUCUGAUGA: 0.0939 ratio
UAUUGCAAGGACCUUCUUUGCUGCCAGUUACCAUAGGCUGUUUUAAGUUAGAAAACUGAAUAGCAACACUGAAUACUGUAGAGAUGCACUUUGCUCAGUAAUACUUGAGUUGUUGCAAUA: 0.392 ratio
GAAGUCACAGCCAGCCCCUUGGUGGGGCCAGACAGGAAAAAGUCCACAGCGAGCCCAAGUAACAACGUAUAUUCUGGCGGUAGCAUGGCGAGGAGGAAUACGUAUGUGUGUGAGAGGAGC: 0.353 ratio
AGGUUGAUCACAUGACAUGUCUACUAAGAAUUUUCACCUCUGUACUUGUAUGUAUAUUUUAUUGUUACUCAAUCUUGUAUUUUAUUUACAAAUUCAACACUGUCAACCCUGGGAAUUCUA: 0.534 ratio

Mixed results
PhoQ, residues 284 288 289 292 302 303 ASSHFY
fold induction (PhoP, residues 12 14 15 18 19 LHHVQ (Escherichia coli, UniProt P23836); Sort-seq, refers to: YFP reporter; E. coli; PhoQ-PhoP variant library, added: 10 µM Mg2+; baseline: high Mg2+ state, higher = stronger signaling): 14.1
